Experimental data of several laboratories.
Protocols differ between the studies behind these lines. Several values in a cell are separate wells, animals, samples, runs or records. ± gives the spread as reported.
MT-CYB/UQCRFS1: MT-CYB/UQCRFS1 (Homo sapiens, UniProt P00156+P47985)
Chain of UniProt P00156 (whole entry, looked up): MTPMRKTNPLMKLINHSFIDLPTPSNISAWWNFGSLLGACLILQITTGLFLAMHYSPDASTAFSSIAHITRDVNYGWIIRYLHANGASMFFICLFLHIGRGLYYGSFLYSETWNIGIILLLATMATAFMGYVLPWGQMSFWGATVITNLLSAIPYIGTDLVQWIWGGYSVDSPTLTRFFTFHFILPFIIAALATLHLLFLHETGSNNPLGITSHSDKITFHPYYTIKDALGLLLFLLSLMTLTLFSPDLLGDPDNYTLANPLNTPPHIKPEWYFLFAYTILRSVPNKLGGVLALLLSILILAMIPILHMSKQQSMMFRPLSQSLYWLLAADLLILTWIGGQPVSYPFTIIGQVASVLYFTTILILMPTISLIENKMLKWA
Chain of UniProt Q04917 (whole entry, looked up): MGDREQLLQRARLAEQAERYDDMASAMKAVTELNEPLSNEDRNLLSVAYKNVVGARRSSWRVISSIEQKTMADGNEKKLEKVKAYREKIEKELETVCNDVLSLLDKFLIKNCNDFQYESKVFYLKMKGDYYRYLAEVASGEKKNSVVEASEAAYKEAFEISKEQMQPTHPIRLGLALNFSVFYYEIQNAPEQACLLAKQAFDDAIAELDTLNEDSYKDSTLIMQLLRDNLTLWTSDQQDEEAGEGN
Chain of UniProt Q16774 (whole entry, looked up): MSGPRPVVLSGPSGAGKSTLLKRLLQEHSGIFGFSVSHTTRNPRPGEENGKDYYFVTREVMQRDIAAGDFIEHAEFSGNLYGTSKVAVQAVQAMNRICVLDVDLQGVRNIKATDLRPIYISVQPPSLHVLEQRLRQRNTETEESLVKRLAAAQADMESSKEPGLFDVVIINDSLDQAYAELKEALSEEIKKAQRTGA
Chain of UniProt P47985 (whole entry, looked up): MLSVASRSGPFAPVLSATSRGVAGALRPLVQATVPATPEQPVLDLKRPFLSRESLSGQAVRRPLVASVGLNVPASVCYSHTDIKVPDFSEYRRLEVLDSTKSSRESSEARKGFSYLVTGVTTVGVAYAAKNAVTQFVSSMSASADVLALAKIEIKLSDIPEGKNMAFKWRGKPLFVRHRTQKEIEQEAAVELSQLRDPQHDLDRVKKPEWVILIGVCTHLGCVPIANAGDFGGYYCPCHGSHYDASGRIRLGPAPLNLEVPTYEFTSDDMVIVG
Chain of UniProt P61619 (whole entry, looked up): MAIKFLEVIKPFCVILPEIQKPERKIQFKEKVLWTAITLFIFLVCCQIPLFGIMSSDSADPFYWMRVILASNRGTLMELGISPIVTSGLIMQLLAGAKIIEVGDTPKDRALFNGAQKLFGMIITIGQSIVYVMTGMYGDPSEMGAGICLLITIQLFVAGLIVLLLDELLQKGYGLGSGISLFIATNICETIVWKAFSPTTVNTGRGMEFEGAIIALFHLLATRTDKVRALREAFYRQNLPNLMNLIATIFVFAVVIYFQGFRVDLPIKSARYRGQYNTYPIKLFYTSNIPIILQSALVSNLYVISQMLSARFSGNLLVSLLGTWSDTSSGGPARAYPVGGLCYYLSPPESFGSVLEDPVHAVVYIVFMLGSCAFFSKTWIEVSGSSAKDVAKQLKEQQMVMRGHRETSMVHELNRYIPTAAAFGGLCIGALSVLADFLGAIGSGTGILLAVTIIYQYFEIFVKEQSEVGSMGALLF
Chain of UniProt Q14145 (whole entry, unmodified, looked up): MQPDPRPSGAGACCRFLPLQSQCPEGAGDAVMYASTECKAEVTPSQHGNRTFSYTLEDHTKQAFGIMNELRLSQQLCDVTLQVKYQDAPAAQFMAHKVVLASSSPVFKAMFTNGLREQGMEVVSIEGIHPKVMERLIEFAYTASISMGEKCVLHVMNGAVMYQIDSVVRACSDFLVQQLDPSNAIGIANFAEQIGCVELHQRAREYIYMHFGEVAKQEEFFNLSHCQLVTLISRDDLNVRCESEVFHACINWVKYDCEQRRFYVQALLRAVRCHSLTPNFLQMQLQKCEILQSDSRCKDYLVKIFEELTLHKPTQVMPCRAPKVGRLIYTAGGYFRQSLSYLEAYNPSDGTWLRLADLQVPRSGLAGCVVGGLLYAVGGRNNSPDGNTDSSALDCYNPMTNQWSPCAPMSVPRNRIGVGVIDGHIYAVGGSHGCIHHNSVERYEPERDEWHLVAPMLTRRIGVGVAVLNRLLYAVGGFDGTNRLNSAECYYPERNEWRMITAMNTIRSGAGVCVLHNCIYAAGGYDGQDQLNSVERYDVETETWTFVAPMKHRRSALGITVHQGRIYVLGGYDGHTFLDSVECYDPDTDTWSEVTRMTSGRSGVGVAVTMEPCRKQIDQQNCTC
Chain of UniProt P11388 (whole entry, looked up): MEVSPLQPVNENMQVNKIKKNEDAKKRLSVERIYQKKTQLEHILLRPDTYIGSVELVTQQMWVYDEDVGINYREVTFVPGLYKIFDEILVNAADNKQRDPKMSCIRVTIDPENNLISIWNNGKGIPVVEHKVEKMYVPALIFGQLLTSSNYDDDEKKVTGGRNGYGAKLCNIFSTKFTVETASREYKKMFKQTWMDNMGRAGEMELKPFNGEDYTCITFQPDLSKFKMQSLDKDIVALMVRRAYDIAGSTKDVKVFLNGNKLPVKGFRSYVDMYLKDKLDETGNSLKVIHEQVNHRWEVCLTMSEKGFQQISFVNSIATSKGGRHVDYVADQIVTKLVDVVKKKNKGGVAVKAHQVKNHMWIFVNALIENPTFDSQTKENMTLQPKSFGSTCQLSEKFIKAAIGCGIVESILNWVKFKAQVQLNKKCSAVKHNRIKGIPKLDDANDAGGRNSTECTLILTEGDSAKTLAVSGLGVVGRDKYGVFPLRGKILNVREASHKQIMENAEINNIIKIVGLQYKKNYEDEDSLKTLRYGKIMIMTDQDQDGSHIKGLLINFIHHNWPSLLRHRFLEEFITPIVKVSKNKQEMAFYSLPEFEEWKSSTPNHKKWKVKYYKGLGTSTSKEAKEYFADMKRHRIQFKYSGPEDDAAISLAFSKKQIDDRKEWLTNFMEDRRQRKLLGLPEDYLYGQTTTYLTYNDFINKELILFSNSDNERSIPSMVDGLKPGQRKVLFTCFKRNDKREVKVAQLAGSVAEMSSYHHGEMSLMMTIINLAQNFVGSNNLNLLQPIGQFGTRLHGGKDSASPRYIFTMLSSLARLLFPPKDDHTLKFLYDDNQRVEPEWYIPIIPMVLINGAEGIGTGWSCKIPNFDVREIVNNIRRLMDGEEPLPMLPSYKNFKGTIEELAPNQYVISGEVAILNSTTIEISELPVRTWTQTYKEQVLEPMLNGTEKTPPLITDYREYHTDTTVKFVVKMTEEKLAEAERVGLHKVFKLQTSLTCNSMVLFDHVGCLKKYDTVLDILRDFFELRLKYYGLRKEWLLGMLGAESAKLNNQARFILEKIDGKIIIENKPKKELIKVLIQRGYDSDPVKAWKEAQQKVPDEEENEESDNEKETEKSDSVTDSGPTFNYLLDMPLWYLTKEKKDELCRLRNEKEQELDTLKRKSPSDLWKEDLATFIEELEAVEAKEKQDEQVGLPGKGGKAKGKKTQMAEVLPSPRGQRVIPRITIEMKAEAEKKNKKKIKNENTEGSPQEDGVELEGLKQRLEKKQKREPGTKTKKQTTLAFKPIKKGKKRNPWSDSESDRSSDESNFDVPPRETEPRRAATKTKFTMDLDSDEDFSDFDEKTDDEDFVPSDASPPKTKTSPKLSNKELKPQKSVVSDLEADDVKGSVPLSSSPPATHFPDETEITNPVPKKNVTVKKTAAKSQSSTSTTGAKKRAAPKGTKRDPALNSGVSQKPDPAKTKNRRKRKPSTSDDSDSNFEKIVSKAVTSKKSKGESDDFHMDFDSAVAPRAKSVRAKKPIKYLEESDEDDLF
Chain of UniProt P51575 (whole entry, unmodified, looked up): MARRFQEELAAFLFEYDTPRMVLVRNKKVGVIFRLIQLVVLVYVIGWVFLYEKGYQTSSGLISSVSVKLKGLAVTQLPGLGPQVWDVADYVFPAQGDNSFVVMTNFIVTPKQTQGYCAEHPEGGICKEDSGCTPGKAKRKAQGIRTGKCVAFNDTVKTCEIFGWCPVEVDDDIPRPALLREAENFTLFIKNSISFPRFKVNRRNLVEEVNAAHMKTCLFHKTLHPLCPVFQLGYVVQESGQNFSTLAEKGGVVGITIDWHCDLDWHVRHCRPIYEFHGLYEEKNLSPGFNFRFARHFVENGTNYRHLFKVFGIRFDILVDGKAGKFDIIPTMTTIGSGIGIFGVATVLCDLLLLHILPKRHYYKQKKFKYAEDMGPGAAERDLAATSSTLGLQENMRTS
Chain of UniProt P28566 (whole entry, looked up): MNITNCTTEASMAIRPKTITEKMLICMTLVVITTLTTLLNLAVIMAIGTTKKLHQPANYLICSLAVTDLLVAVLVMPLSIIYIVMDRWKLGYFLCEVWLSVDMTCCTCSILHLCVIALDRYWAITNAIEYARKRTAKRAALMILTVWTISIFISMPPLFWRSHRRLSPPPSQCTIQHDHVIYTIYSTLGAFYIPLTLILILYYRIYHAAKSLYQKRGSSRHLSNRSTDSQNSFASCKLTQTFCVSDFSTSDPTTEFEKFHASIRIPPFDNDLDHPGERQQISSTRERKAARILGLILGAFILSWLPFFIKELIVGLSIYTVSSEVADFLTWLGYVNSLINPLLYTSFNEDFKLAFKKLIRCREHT
Chain of UniProt O43914 (whole entry, looked up): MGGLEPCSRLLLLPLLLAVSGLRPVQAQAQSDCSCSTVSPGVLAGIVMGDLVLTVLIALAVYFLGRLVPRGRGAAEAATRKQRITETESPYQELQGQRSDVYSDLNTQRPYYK
Chain of UniProt Q13258 (whole entry, unmodified, looked up): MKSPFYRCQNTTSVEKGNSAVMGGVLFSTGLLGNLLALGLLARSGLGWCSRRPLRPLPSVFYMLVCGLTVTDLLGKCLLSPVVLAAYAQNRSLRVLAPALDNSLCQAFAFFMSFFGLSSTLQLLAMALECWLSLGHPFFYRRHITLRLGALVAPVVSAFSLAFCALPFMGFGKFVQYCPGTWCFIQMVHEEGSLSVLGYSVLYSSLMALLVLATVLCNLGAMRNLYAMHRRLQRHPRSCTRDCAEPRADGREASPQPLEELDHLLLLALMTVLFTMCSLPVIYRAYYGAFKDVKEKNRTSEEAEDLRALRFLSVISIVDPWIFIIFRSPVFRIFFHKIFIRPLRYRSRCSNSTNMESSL

SMILES	tested on	test	system	conditions	scale	endpoint	value
CCc1cnn2c(NCc3ccc[n+]([O-])c3)cc(N3CCCC[C@H]3CCO)nc12	Bromodomain-containing protein 4 (BRD4, Homo sapiens, UniProt O60885)	19F NMR, measured: tyrosine 118	–	47 µM	relative to: free protein	chemical shift change	-0.015 ppm
CC1=C(/C=C/C(C)=C/C=C/C(C)=C/C=O)C(C)(C)CCC1	Rhodopsin (RHO, Bos taurus, UniProt P02699, F273W)	retinal release, Trp FRET	lipid bicelles	28 °C, F273W mutant	relative to: wild-type rhodopsin	relative koff	2.3 ± 0.05
Nc1ncnc2c1ncn2[C@@H]1O[C@H](COP(=O)(O)CP(=O)(O)OP(=O)(O)O)[C@@H](O)[C@H]1O	P2X purinoceptor 1 (P2RX1, Homo sapiens, UniProt P51575, F188L)	saturation binding	HEK293	103 nM	–	specific binding	6110 CCPM and 6710 CCPM
O=c1nc(SCc2cc(F)cc(C(F)(F)F)c2)nc(SCc2ccc3nc(Cl)ccc3c2)[nH]1	DNA topoisomerase 2-alpha (TOP2A, Homo sapiens, UniProt P11388)	ATPase activity	–	7.8 µM, added: ATP 0.025 mM	–	ATP hydrolysis rate	0.197 µM/min and 0.28 µM/min
CCCCC[C@H](O)/C=C/[C@H]1[C@H](O)CC(=O)[C@@H]1C/C=C\CCCC(=O)O	Prostaglandin E2 receptor EP1 subtype (PTGER1, Homo sapiens, UniProt P34995, C136A)	IP1 accumulation, agonist	AD293	1 h, EP1 C136A mutant	–	Emax	85 ± 7.5%
CC(=O)N[C@@H](C)C(=O)N[C@@H](CC(N)=O)C(=O)NCC(=O)N[C@@H](CC(N)=O)C(=O)N[C@@H](C)C(=O)N[C@@H](CC(N)=O)C(=O)N[C@@H](CCC(=O)O)C(=O)N[C@@H](CCC(=O)O)C(=O)N[C@@H](CC(N)=O)C(=O)NCC(=O)N[C@@H](CCC(=O)O)C(=O)N[C@@H](CCC(N)=O)C(=O)N[C@@H](CCC(=O)O)C(=O)N[C@@H](C)C(=O)N[C@@H](CC(=O)O)C(=O)N[C@@H](CC(N)=O)C(=O)N[C@@H](CCC(=O)O)C(=O)N[C@H](C(=O)N[C@@H](CC(=O)O)C(N)=O)C(C)C	Kelch-like ECH-associated protein 1, Kelch domain (KEAP1, Homo sapiens, UniProt Q14145)	binding, ITC	–	pH 7, 298.15 K	–	ΔG	-7.45 ± 0.04 kcal/mol
CCCC[C@H]1C(=O)N(C)[C@@H](CCCC)C(=O)N[C@@H](CCCCNC(=O)CN2CCN(CC(=O)O)CCN(CC(=O)O)CC2)C(=O)N[C@H](C(=O)NCC(N)=O)CSCC(=O)N[C@@H](Cc2ccc(O)cc2)C(=O)N(C)[C@@H](C)C(=O)N[C@@H](CC(N)=O)C(=O)N2CCC[C@H]2C(=O)N[C@@H](Cc2c[nH]cn2)C(=O)N[C@@H](CCC(=O)O)C(=O)N2C[C@H](O)C[C@H]2C(=O)N[C@@H](Cc2c[nH]c3ccccc23)C(=O)N[C@@H](CO)C(=O)N[C@@H](Cc2cn(CC(=O)O)c3ccccc23)C(=O)N1C [gallium-68 labelled]	Programmed cell death 1 ligand 1 (CD274, Homo sapiens, UniProt Q9NZQ7)	–	U-87 MG	60 min	–	cell uptake	28.1%
Cc1ccc(C)n1-c1sccc1C(=O)O	Protein lin-28 homolog A (Mus musculus, UniProt Q8K3Y3)	–	–	–	–	Hill slope	-0.8
O=C(O)/C=C/c1ccc(O)c(O)c1	Kelch-like ECH-associated protein 1 (KEAP1, Homo sapiens, UniProt Q14145)	native mass spectrometry	–	1:5 protein:compound ratio, 30 min	–	hexamer abundance	decreased
CC(=O)c1n[nH]c2ccc(-c3cnc4ccc(N(C)C5CCOCC5)nn34)cc12	TYRO protein tyrosine kinase-binding protein (TYROBP, Homo sapiens, UniProt O43914)	inhibitor	split luciferase reporter cells	1 µM, after wash	relative to: without wash	DAP12/DAP12 reporter signal	no effect
COc1ccc(C[C@H](N)C(=O)N[C@H]2[C@@H](O)[C@H](n3cnc4c(N(C)C)ncnc43)O[C@@H]2CO)cc1	Protein transport protein Sec61 subunit alpha isoform 1 (Homo sapiens, UniProt P61619)	reporter gene, inhibitor, dual luciferase	HEK293 with SP-CD4-FLuc reporter	concentration not given	–	FLuc/RLuc ratio	1.04 and 1.33 and 1.26 and 1.05
NC(=O)NOCCCCCCCCCCCCCCCC[P+](c1ccccc1)(c1ccccc1)c1ccccc1.O=C([O-])C(F)(F)F	MT-CYB/UQCRFS1	complex III-dependent respiration, Seahorse XF96	HCT-116	0.4 µM, 24 h	relative to: control	oxygen consumption rate	81.4%
CCCCC[C@H](O)/C=C/[C@H]1C(=O)C[C@H](O)[C@@H]1C/C=C\CCCC(=O)O	Prostaglandin D2 receptor (PTGDR, Homo sapiens, UniProt Q13258, M112A)	agonist, ONE-GO BRET	–	0.1562 µM (156 nM)	relative to: wild-type receptor maximum	Gs protein activation	87.1%
NCCCC(=O)O	Sodium- and chloride-dependent taurine transporter (SLC6A6, Homo sapiens, UniProt P31641, L306A)	binding, microscale thermophoresis	–	61 nM, room temperature, added: 50 nM labelled protein	higher = more binding	normalised MST signal	-0.0944
Cc1cccc(N(O)N=Nc2ccc(S(=O)(=O)Nc3cc(C)on3)cc2)c1	α-glucosidase, rat intestine	enzyme activity	–	300 µg/mL, added: 4-nitrophenyl α-D-glucopyranoside	–	inhibition	47.5 ± 1.3%
CC(C)(O)c1ccccc1CC[C@@H](SCC1(CC(=O)O)CC1)c1cccc(/C=C/c2ccc3ccc(Cl)cc3n2)c1	Cysteinyl leukotriene receptor 1 (Mus musculus, UniProt Q99JA4)	measured: cysteinyl leukotrienes	female mice	intraperitoneal, 30 mg/kg	–	BAL fluid CysLT level	inhibited

SMILES	tested on	test	system	conditions	scale	endpoint	value
CC(=O)c1c(C)cc2cc(O)cc(O[C@@H]3O[C@H](CO)[C@@H](O)[C@H](O)[C@H]3O)c2c1O	HK-2 co-cultured with HepaRG	MTT	–	33.33 µM, 48 h	relative to: untreated control	cell viability	97.7 ± 10.7%
NC(=O)NOCCCCCCCCCC[P+](c1ccccc1)(c1ccccc1)c1ccccc1.O=C([O-])C(F)(F)F	MT-CYB/UQCRFS1	complex III-dependent respiration, Seahorse XF96	HCT-116	50 µM, 24 h	relative to: control	oxygen consumption rate	36.8 ± 3.94%
O=S(=O)(Nc1nccs1)c1ccc(N=NN(O)c2ccccc2)cc1	α-glucosidase, rat intestine	enzyme activity	–	60 µg/mL, added: 4-nitrophenyl α-D-glucopyranoside	–	inhibition	12.5 ± 0.04%
NC(=O)NOCCCCCCCCCCCCCCCCCCCC[P+](c1ccccc1)(c1ccccc1)c1ccccc1.O=C([O-])C(F)(F)F	MT-CYB/UQCRFS1	complex III-dependent respiration, Seahorse XF96	HCT-116	5 µM, 24 h	relative to: control	oxygen consumption rate	49%
CCN1CCC[C@H]1CNC(=O)c1c(O)c(Cl)cc(Cl)c1OC	GPR101 (Homo sapiens, UniProt Q96P66)	β-arrestin recruitment, TANGO luminescence	–	concentration not given	relative to: basal luminescence	log2 fold change	0.022
O=C(COP(=O)(O)O)[C@@H](O)[C@H](O)[C@H](O)COP(=O)(O)O	14-3-3 protein eta (Homo sapiens, UniProt Q04917)	thermal proteome profiling, measured: YWHAH	HepG2 cell lysate	concentration not given, 57 over 37 °C	relative to: compound over control	thermal stability ratio	0.349 and 0.625 and 0.727
CC[C@H]1[C@@H](O)[C@@H]2[C@H](CC[C@]3(C)[C@@H]([C@H](C)CCNC(=O)NS(=O)(=O)c4ccc(C(C)(C)C)cc4)CC[C@@H]23)[C@@]2(C)CC[C@@H](O)C[C@@H]12	Cytochrome P450 3A4 (CYP3A4, Homo sapiens, UniProt P08684)	–	human, plasma	10 mg, day 1, compound alone	–	Cmax mean	33.1 ng/mL
CCCCCCCC/C=C\CCCCCCCC(=O)NCCc1ccc(O)c(O)c1	Transient receptor potential cation channel subfamily V member 1 (Trpv1, Mus musculus, UniProt Q704Y3, R580K)	ion current, agonist, whole-cell patch clamp	–	R580K	–	Hill coefficient	2.17 ± 0.58
CC[C@H](CO)N(CCN(N=O)[C@H](CC)CO)N=O	Salmonella typhimurium	mutagenicity, Ames plate incorporation	TA98	150 µg/plate, without S9, methanol	–	revertant colonies per plate	28.3 ± 3
O=C1c2cccc(O)c2C(=O)c2c(O)cc(CO)cc21	HK-2 co-cultured with HepaRG	MTT	–	66.67 µM, 24 h	relative to: untreated control	viability	135 ± 14.5%
CN1CCN(c2cc(-c3ccncc3)c(-c3ccc4ccccc4c3)nn2)CC1	C-C chemokine receptor type 5 (Macaca mulatta, UniProt P61813)	agonist, FLIPR calcium	cells expressing rhesus CCR5	12.5 µM	–	activation	2.6%
Nc1nc2c(ncn2[C@@H]2O[C@H](COP(=O)(O)O)[C@@H](O)[C@H]2O)c(=O)[nH]1	GUK1 (Homo sapiens, UniProt Q16774)	enzyme activity, NADH-coupled	–	62.5 µM	–	reaction rate	39 s⁻¹ and 36 s⁻¹ and 41.9 s⁻¹
N#Cc1ccc2[nH]cc(CCCCN3CCN(c4ccc5oc(C(N)=O)cc5c4)CC3)c2c1	Sodium-dependent serotonin transporter (SLC6A4, Homo sapiens, UniProt P31645, F341V)	[3H]5-HT uptake, inhibitor	COS-7	–	–	Hill coefficient	1.65 ± 0.23
CCCC(CCC)c1nc2c(Nc3ccc(C#CCCCCCCCCN)cc3)nc3ccccc3c2[nH]1	5-hydroxytryptamine receptor 1E (HTR1E, Homo sapiens, UniProt P28566)	PDSP screening	–	–	–	off-target affinity	inactive
C=CC(=O)N1CCC(COCC(=O)N2CCN(c3nc(-c4cnc(N)nc4C(F)F)nc(N4CCOC[C@@H]4C)n3)CC2)CC1	Serine/threonine-protein kinase VRK2 (VRK2, Homo sapiens, UniProt Q86Y07)	KINOMEscan	–	1 µM	–	remaining binding	71%
Cc1ccc(N2CC(C(N)=O)CC2=O)cc1 (centres unmarked)	YTH domain-containing family protein 2 (YTHDF2, Homo sapiens, UniProt Q9Y5A9)	binding, affinity selection mass spectrometry	–	–	relative to: other proteins in batch	log fold enrichment	0

Repeated from above:
SMILES	tested on	test	system	conditions	scale	endpoint	value
CC(C)(O)c1ccccc1CC[C@@H](SCC1(CC(=O)O)CC1)c1cccc(/C=C/c2ccc3ccc(Cl)cc3n2)c1	Cysteinyl leukotriene receptor 1 (Mus musculus, UniProt Q99JA4)	measured: cysteinyl leukotrienes	female mice	intraperitoneal, 30 mg/kg	–	BAL fluid CysLT level	inhibited
CC(=O)c1c(C)cc2cc(O)cc(O[C@@H]3O[C@H](CO)[C@@H](O)[C@H](O)[C@H]3O)c2c1O	HK-2 co-cultured with HepaRG	MTT	–	33.33 µM, 48 h	relative to: untreated control	cell viability	97.7 ± 10.7%
